# Measurements pooled from the literature.
# Lines come from different studies, so protocols differ. Numbers after ± are the reported error.
Structure (SMILES),assay,system,setting,how to read,measurement,result
CCCC[C@@H]1NC(=O)[C@@H](NC(=O)[C@H](CCC(=O)O)NC(=O)CNC(=O)CN2CCN(CC(=O)O)CCN(CC(=O)O)CCN(CC(=O)O)CC2)CCCCNC(=O)C[C@@H](C(N)=O)NC(=O)[C@H](C(C)C)NC(=O)[C@@H]2CCCN2C(=O)[C@H](CCCNC(=N)N)NC(=O)CNC(=O)[C@H](Cc2c[nH]c3ccccc23)NC(=O)[C@H](CCCNC(=N)N)NC(=O)[C@@H](Cc2ccccc2)NC(=O)[C@H](Cc2c[nH]cn2)NC(=O)[C@H](CCC(=O)O)NC1=O [indium-111 labelled],,"normal C57 mice, kidneys","intravenous, 0.037 MBq, 4 h",,tissue uptake,14.9 ± 1.5 %ID/g
CC(=O)N[C@@H](Cc1ccccc1)C(=O)N[C@H]1CCCNC(=O)[C@H](CCCNC(=N)N)NC(=O)[C@H](Cc2c[nH]c3ccccc23)NC(=O)[C@@H](CC2CCCCC2)NC(=O)[C@@H]2CCCN2C1=O,,"C57BL/6J mice, spinal cord","intraperitoneal, 1 mg/kg",,elimination half-life,0.795 h
C[C@]12CC[C@@H]3c4ccc(O)cc4CC[C@H]3[C@@H]1C[C@@H](O)[C@@H]2O,GC-MS,"breast cancer women on NSAI, serum","vaginal, 0.03 mg, 4 h, day 0",,minimum serum concentration,0 ng/mL
COc1cc(Nc2ncc3c(n2)-c2ccc(Cl)cc2C(c2c(F)cccc2OC)=NC3)ccc1C(=O)O,,"human, phase I","oral, 40 mg twice daily, together with: combination with other drug",,AUC(0-8h),7670 ± 1510 ng·h/mL
CC(=O)N1CCN(c2ccc(OCC3COC(Cn4ccnc4)(c4ccc(Cl)cc4Cl)O3)cc2)CC1 (stereo not shown),mitochondrial swelling,BALB/cByJ female mouse liver mitochondria,"30 min, together with: succinate + rotenone",relative to: CaCl2 maximal swelling,EC20,> 400 µM
CCOc1ccc2c(c1)C(C)=CC(C)(C)N2,LC-MS/MS,"piglets, liver","oral, 50 mg/kg feed, 42 days, after glucuronidase",,residue concentration,7.5 ± 4.5 ng/g
CC[C@@]1(O)C(=O)OCc2c1cc1n(c2=O)Cc2cc3c(CN(C)C)c(O)ccc3nc2-1,,"human patients, plasma","oral, 4 mg, geometric mean, together with: pazopanib 800 mg",,AUC(0-inf),102 ng·h/mL
CNCc1ccc(-c2[nH]c3cc(F)cc4c3c2CCNC4=O)cc1,,"human cancer patients, plasma","intravenous, 8 mg/m2, day 1, together with: temozolomide 100",,AUC(0-24 h),877 ng·h/mL
CNCc1ccc(-c2[nH]c3cc(F)cc4c3c2CCNC4=O)cc1,,"human patients, plasma","oral, 500 mg once daily, day 15, steady state, arithmetic mean",,half-life,20.8 h
CC(C)(c1ccc(O)cc1)c1ccc(O)cc1,GC-MS,"exposure tank water with snails, charcoal-filtered tap water","100 ng/L nominal, 22 °C",,half-life,3.03 h
Cc1ccc(C(=O)c2cc(O)c(O)c([N+](=O)[O-])c2)cc1,parallel tube model,human,from oral clearance,,intrinsic hepatic clearance,4730 L/h
CCc1cc2c(C(=O)c3ccc(OC)cc3)cc(Br)c(O)c2o1,metabolic stability,"Sprague-Dawley rat, liver microsomes","1 µM, pH 7.4",,microsomal CLint,42.8 µL/min/mg
CCN1CCN(c2ccc(Nc3cc(N(C)C(=O)Nc4c(Cl)c(OC)cc(OC)c4Cl)ncn3)cc2)CC1,LC-MS/MS,"juvenile female Crl:WI(Han) rats, plasma","oral gavage, 1.0 mg/kg/day, postnatal day 17",,AUC(0-t),503 ng·h/mL
COc1cccc(N2CCN(C3=Nc4c(F)cccc4[C@H](CC(=O)O)N3c3cc(C(F)(F)F)ccc3OC)CC2)c1,UHPLC-MS/MS,"healthy women, plasma","intravenous infusion, 480 mg single dose, 60 min infusion, HPβCD formulation",,MRT,7.21 ± 1.71 h
CC[C@H](C)CCCCC(=O)N[C@@H](CCN)C(=O)N[C@H](C(=O)N[C@@H](CCN)C(=O)N[C@H]1CCNC(=O)[C@H]([C@@H](C)O)NC(=O)[C@H](CCN)NC(=O)[C@H](CCN)NC(=O)[C@H](CC(C)C)NC(=O)[C@@H](Cc2ccccc2)NC(=O)[C@H](CCN)NC1=O)[C@@H](C)O,equilibrium dialysis LC-MS/MS,"human patients, plasma","dose not given, median",,free Cmax,140 ng/mL
Cn1c(-c2ccc(C(N)=O)cc2F)nnc1C(C)(C)Oc1c(F)cc(Cl)cc1F,,"healthy young Japanese subjects, plasma","oral, 20 mg once daily, day 18, 14 days dosing",,AUC(0-tau) mean,2620 ng·h/mL
CS(=O)(=O)n1cc2c(n1)CN([C@H]1CO[C@H](c3cc(F)ccc3F)[C@@H](N)C1)C2,,"healthy Japanese men, plasma","oral, 50 mg once weekly, day 1",,Ctrough,27.1 nM
O=C(c1nc2n(n1)[C@H](c1ccccc1)C[C@@H]2F)C1CC1,,"human, plasma","oral, 150 mg, single dose, fasted, healthy volunteers",,Vd/F,101 L
C=C[C@@H]1C[C@]1(NC(=O)[C@@H]1C[C@@H](Oc2ncc(OC)c3ccc(Cl)cc23)CN1C(=O)[C@@H](NC(=O)OC(C)(C)C)C(C)(C)C)C(=O)NS(=O)(=O)C1CC1,,human,"oral, time-varying AST 115 U/L",relative to: median baseline AST,CL/F ratio,0.74 fold
COCCCCn1c(C(=O)N(CC(C)C)[C@@H]2CNC[C@H](C(=O)N3CCOCC3)C2)nc2ccccc21,,"non-elderly human, plasma","oral, 80 mg once daily, day 1",,AUC(0-tau),3730 ng·h/mL
C[C@@H](N)c1cc(Cl)ccc1Cn1c(=S)[nH]c(=O)c2[nH]ccc21,,Japanese and Chinese participants,up to 5 mg,,tolerability,not toxic
CO[C@H]1C[C@@H]2CC[C@@H](C)[C@@](O)(O2)C(=O)C(=O)N2CCCC[C@H]2C(=O)O[C@H]([C@H](C)C[C@@H]2CC[C@@H](O)[C@H](OC)C2)CC(=O)[C@H](C)/C=C(\C)[C@@H](O)[C@@H](OC)C(=O)[C@H](C)C[C@H](C)/C=C/C=C/C=C/1C,,"human, whole blood","oral, 25 mg, without grapefruit juice",,Cmax,84.7 ng/mL
CC1=C2C[C@H]3[C@@H](CC[C@@H]4C[C@H](NS(C)(=O)=O)CC[C@@]43C)[C@@H]2CC[C@@]2(C1)O[C@@H]1C[C@H](C)CN[C@H]1[C@H]2C,,"patients, plasma","oral, 160 mg single, day -7, cycle 1",,Tmax,4.52 h
CC[C@]1(O)C[C@@H]2CN(CCc3c([nH]c4ccccc34)[C@@](C(=O)OC)(c3cc4c(cc3OC)N(C)[C@H]3[C@@](O)(C(=O)OC)[C@H](OC(C)=O)[C@]5(CC)C=CCN6CC[C@]43[C@@H]65)C2)C1,"cytochrome c release, ELISA",BALB/cByJ female mouse liver mitochondria,30 min,relative to: alamethicin maximal release,EC20,> 400 µM
CC(C)(C)NC(=O)[C@@H]1C[C@@H]2CCCC[C@@H]2CN1C[C@@H](O)[C@H](Cc1ccccc1)NC(=O)[C@H](CC(N)=O)NC(=O)c1ccc2ccccc2n1,USP dissolution apparatus II,distilled water,"concentration not given, 120 min, pH 6.5, 37 °C",,drug released,~20%
CC[C@H](C)[C@H](NC(=O)[C@H](Cc1ccccc1)NC(=O)[C@H](CCC(=O)O)NC(=O)[C@H](CCCCNC(=O)COCCOCCNC(=O)COCCOCCNC(=O)CC[C@H](NC(=O)CCCCCCCCCCCCCCCCC(=O)O)C(=O)O)NC(=O)[C@H](C)NC(=O)[C@H](C)NC(=O)[C@H](CCC(N)=O)NC(=O)CNC(=O)[C@H](CCC(=O)O)NC(=O)[C@H](CC(C)C)NC(=O)[C@H](Cc1ccc(O)cc1)NC(=O)[C@H](CO)NC(=O)[C@H](CO)NC(=O)[C@@H](NC(=O)[C@H](CC(=O)O)NC(=O)[C@H](CO)NC(=O)[C@@H](NC(=O)[C@H](Cc1ccccc1)NC(=O)[C@@H](NC(=O)CNC(=O)[C@H](CCC(=O)O)NC(=O)C(C)(C)NC(=O)[C@@H](N)Cc1cnc[nH]1)[C@@H](C)O)[C@@H](C)O)C(C)C)C(=O)N[C@@H](C)C(=O)N[C@@H](Cc1c[nH]c2ccccc12)C(=O)N[C@@H](CC(C)C)C(=O)N[C@H](C(=O)N[C@@H](CCCNC(=N)N)C(=O)NCC(=O)N[C@@H](CCCNC(=N)N)C(=O)NCC(=O)O)C(C)C,,"healthy Caucasian subjects, plasma","subcutaneous, steady state, once weekly",relative to: 1.0 mg over 0.5 mg,AUC(0-168 h) ratio,2.22
CNC(=O)c1cc(Oc2ccc(NC(=O)Nc3ccc(Cl)c(C(F)(F)F)c3)cc2)ccn1,"cytochrome c release, ELISA",BALB/cByJ female mouse liver mitochondria,30 min,relative to: alamethicin maximal release,EC20,> 400 µM
COc1cc(C=CC(=O)O)ccc1OC1OC(C(=O)O)C(O)C(O)C1O (stereo not shown),,"human, fasted baseline, cerebrospinal fluid",,,mean concentration,18.1 nM

# A few entries again:
Structure (SMILES),assay,system,setting,how to read,measurement,result
COCCCCn1c(C(=O)N(CC(C)C)[C@@H]2CNC[C@H](C(=O)N3CCOCC3)C2)nc2ccccc21,,"non-elderly human, plasma","oral, 80 mg once daily, day 1",,AUC(0-tau),3730 ng·h/mL
C[C@@H](N)c1cc(Cl)ccc1Cn1c(=S)[nH]c(=O)c2[nH]ccc21,,Japanese and Chinese participants,up to 5 mg,,tolerability,not toxic
CO[C@H]1C[C@@H]2CC[C@@H](C)[C@@](O)(O2)C(=O)C(=O)N2CCCC[C@H]2C(=O)O[C@H]([C@H](C)C[C@@H]2CC[C@@H](O)[C@H](OC)C2)CC(=O)[C@H](C)/C=C(\C)[C@@H](O)[C@@H](OC)C(=O)[C@H](C)C[C@H](C)/C=C/C=C/C=C/1C,,"human, whole blood","oral, 25 mg, without grapefruit juice",,Cmax,84.7 ng/mL
